Measured values collected from several papers.
Compare with care: the assays were run in different laboratories. Several values in a cell are separate wells, animals, samples, runs or records. ± marks the error that the study gave.
UniProt Q2TAA2, sequence (whole entry, looked up): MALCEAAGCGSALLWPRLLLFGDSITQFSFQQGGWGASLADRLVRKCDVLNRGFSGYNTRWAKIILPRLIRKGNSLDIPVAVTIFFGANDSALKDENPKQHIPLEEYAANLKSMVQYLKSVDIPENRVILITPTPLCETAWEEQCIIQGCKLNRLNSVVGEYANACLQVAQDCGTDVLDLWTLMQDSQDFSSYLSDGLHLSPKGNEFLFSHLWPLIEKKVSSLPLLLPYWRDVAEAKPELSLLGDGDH
UniProt Q86YV6, sequence (whole entry, looked up): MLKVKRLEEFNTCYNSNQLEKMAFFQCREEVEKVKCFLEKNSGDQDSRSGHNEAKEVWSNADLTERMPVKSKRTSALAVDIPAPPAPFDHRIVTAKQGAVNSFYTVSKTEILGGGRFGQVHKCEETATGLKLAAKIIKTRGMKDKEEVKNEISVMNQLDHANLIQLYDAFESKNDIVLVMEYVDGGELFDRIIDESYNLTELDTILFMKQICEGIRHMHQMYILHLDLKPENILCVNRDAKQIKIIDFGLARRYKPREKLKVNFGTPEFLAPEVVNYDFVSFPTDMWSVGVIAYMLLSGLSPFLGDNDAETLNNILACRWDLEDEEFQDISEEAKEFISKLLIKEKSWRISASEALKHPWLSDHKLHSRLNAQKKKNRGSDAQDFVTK
UniProt P33534, sequence (whole entry, looked up): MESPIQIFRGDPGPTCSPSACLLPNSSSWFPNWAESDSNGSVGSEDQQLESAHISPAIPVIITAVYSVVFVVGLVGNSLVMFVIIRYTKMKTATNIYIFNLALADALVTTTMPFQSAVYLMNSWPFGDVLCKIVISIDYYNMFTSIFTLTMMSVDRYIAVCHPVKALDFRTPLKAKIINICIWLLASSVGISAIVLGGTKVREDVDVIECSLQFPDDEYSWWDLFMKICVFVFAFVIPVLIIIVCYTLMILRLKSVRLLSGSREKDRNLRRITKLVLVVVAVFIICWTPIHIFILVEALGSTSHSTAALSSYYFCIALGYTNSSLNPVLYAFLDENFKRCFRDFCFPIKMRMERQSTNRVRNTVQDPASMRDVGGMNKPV
UniProt P23439, sequence (whole entry, looked up): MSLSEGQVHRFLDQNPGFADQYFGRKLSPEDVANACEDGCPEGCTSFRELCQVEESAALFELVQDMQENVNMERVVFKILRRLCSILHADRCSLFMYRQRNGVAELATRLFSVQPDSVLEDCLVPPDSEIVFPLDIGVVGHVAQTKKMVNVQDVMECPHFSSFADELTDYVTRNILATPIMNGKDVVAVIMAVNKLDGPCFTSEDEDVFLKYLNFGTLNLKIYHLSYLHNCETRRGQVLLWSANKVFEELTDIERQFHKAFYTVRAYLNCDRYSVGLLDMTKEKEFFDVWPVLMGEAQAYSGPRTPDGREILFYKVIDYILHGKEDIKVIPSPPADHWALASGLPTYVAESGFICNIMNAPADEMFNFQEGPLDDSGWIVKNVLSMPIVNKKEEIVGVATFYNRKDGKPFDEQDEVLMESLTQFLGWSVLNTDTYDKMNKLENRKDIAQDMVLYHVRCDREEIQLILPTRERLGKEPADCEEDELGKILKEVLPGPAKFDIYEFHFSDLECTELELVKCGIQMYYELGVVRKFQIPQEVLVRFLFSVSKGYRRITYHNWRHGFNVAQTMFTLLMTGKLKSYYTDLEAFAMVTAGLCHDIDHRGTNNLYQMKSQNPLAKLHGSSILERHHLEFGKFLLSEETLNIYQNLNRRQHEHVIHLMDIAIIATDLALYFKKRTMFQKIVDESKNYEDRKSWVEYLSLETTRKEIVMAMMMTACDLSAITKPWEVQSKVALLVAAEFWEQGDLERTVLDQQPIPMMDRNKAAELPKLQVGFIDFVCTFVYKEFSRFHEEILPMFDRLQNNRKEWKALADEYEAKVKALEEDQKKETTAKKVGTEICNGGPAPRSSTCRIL
UniProt P49683, sequence (whole entry, looked up): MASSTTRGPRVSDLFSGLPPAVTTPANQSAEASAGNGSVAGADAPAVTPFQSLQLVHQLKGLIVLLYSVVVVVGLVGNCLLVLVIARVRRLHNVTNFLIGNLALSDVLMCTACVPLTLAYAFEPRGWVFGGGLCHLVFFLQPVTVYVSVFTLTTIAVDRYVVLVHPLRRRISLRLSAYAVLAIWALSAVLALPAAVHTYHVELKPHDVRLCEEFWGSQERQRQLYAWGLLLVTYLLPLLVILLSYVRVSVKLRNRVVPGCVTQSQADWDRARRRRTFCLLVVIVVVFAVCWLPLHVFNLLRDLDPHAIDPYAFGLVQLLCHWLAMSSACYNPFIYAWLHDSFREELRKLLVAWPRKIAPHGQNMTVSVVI
UniProt P21333, sequence (whole entry, looked up): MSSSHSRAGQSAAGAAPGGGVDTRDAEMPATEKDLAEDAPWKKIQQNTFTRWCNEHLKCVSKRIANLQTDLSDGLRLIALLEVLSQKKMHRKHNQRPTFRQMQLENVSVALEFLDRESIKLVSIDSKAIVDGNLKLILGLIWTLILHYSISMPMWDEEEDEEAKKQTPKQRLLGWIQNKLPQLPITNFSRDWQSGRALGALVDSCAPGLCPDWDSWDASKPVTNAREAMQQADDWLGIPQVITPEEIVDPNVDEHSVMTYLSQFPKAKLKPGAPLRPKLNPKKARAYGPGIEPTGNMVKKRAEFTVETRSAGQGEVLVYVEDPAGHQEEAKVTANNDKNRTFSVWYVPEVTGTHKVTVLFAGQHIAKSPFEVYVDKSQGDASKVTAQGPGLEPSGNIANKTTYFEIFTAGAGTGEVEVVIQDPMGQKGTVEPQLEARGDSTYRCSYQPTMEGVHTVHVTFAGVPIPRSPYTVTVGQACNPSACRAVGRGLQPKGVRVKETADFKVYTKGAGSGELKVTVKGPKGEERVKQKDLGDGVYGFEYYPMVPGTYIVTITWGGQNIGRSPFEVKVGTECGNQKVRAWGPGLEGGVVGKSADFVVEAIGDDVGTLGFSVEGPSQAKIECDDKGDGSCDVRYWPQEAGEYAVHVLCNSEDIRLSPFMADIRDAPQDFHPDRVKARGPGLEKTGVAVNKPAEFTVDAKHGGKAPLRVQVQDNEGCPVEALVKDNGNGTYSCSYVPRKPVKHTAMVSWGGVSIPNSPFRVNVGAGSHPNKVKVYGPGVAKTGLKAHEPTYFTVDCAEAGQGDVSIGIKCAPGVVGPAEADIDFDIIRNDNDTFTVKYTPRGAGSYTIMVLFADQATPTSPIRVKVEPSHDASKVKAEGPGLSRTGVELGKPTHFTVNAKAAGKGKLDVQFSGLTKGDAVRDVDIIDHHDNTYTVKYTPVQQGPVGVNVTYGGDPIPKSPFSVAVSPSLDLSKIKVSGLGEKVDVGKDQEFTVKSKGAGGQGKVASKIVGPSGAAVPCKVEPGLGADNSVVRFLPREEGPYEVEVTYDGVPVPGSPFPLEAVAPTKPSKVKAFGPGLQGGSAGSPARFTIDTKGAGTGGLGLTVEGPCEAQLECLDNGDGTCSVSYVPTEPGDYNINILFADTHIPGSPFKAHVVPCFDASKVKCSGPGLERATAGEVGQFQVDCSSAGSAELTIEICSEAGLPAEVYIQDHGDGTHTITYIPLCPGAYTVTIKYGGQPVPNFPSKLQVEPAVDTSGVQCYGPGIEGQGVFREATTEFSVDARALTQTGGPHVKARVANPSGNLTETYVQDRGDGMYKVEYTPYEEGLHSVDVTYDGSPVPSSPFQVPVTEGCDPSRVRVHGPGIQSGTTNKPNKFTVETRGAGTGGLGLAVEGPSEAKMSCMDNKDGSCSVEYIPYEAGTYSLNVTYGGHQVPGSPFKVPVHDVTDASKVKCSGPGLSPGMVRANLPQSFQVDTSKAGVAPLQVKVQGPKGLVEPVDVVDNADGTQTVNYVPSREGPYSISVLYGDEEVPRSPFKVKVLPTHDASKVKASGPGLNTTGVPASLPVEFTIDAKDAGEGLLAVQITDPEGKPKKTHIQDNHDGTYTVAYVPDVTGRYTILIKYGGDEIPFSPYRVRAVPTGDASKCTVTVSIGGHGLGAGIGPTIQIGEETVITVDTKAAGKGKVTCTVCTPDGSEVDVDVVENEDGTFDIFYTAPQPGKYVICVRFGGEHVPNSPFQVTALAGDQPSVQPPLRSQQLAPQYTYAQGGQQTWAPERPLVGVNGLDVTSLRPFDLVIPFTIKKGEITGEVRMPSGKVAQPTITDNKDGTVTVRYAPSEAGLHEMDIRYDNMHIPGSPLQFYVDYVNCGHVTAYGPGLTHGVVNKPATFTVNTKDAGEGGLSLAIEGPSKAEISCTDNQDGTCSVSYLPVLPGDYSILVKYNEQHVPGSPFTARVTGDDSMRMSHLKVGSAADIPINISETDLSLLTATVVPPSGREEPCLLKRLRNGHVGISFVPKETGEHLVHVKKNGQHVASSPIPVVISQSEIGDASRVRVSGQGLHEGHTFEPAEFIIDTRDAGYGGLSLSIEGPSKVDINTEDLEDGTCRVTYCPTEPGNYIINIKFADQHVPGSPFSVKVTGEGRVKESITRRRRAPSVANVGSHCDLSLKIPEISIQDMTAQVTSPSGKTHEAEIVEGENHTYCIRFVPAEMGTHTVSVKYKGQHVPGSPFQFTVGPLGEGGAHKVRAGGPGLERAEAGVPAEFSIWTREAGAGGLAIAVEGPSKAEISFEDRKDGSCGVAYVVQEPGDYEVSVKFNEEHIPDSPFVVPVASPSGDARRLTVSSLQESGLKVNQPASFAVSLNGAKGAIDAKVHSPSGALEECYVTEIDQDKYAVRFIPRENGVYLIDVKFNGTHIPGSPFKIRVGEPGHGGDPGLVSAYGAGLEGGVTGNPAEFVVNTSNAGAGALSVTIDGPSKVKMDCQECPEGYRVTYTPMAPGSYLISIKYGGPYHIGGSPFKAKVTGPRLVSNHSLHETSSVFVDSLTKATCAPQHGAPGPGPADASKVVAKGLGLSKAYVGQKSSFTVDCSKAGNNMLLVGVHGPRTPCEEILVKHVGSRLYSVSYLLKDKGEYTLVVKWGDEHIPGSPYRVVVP

SMILES | tested on | test | test system | setting | scale | quantity | value
C[C@]1(O)CC[C@H]2[C@@H]3CCC4=CC(=O)CCC4=C3C=C[C@@]21C | LNCaP | CUT&RUN |  | 5 nM, 16 h |  | AR binding peaks | 13300 peaks
[2H]c1c([2H])c([C@]2([2H])CCCN2C(=O)C(C)(C)Oc2ccc3cn[nH]c3c2)c([2H])c([2H])c1C([2H])([2H])[2H] | Myosin light chain kinase family member 4 (MYLK4, Homo sapiens, UniProt Q86YV6) | KINOMEscan |  | 1 µM | relative to: DMSO control | remaining binding | 95%
O=C(c1ccc(Cl)cc1)N1CCN2C(=O)N(OC(=O)N3CCOc4ccccc43)C(=O)C2C1 (stereo not drawn) | Isoamyl acetate-hydrolyzing esterase 1 homolog (IAH1, Homo sapiens, UniProt Q2TAA2) | MS-based ABPP | SW-620 conditioned medium | 10 µM, 1 h, 37 °C | relative to: compound over DMSO, lower = more inhibition | peptide ratio | 0.87 and 0.79
O=C(N[C@@H]1CCC2C3Cc4ccc(O)c5c4[C@@]2(CCN3CC2CC2)C1O5)c1cccc(I)c1 (stereo partly drawn) | Kappa-type opioid receptor (Oprk1, Mus musculus, UniProt P33534) |  |  |  | relative to: mouse DOR over KOR potency | selectivity ratio | 30 fold
CO[C@H]1C[C@@H]2CC[C@@H](C)[C@@](O)(O2)C(=O)C(=O)N2CCCC[C@H]2C(=O)O[C@H]([C@H](C)C[C@@H]2CC[C@@H](OC(=O)NCCOCCOCCOCCOCCOCCOCCOCCOCCC(=O)N3CCc4cc(Cn5nc(-c6ccc7oc(N)nc7c6)c6c(N)ncnc65)ccc4C3)[C@H](OC)C2)C[C@@H](O)[C@H](C)/C=C(\C)[C@@H](O)[C@@H](OC)C(=O)[C@H](C)C[C@H](C)/C=C/C=C/C=C/1C |  | phase 1 dose escalation | advanced solid tumour patients | intravenous, 8 mg weekly, any grade |  | any SAE incidence | 37.5%
CCCc1cc(O)c2c(c1)OC(C)(C)[C@@H]1CCC(C)=C[C@@H]21 | Transient receptor potential cation channel subfamily V member 3 (TRPV3, Homo sapiens, UniProt Q8NET8, L420A) | calcium uptake, agonist | HEK293S | mutant L420A, site 3 |  | Hill coefficient | 1.84 ± 0.17
COc1cc(Nc2ncc(F)c(Nc3ccc4c(n3)NC(=O)C(C)(C)O4)n2)cc(OC)c1OC | PDE6A/PDE6B (Bos taurus, UniProt P11541+P23439) |  |  |  |  | IC50 | > 10 µM
CC[C@H](C)[C@H](NC(=O)CNC(=O)[C@@H](N)CCCCN)C(=O)N[C@@H](CC(C)C)C(=O)N[C@@H](CCCCN)C(=O)N[C@@H](CCCNC(=N)N)C(=O)N[C@@H](CCC(=O)O)C(=O)N[C@@H](CCCCN)C(=O)N[C@@H](CCCNC(=N)N)C(=O)N[C@@H](CC(C)C)C(=O)N[C@@H](CCCNC(=N)N)C(=O)N[C@@H](CCCNC(=N)N)C(=O)N[C@@H](CCCCN)C(=O)N[C@@H](CC(N)=O)C(=O)N[C@H](C(=O)N[C@@H](Cc1c[nH]cn1)C(=O)N[C@@H](Cc1c[nH]c2ccccc12)C(=O)N1CCC[C@H]1C(=O)N[C@@H](CCC(=O)O)C(=O)N[C@@H](CCC(=O)O)C(=O)NCC(=O)N[C@@H](CCCCN)C(=O)N[C@@H](CC(C)C)C(=O)N[C@@H](CCCNC(=N)N)C(=O)N[C@@H](CCC(=O)O)C(=O)N[C@@H](Cc1ccc(O)cc1)C(=O)N[C@@H](Cc1ccccc1)C(=O)N[C@@H](Cc1ccc(O)cc1)C(=O)N[C@@H](Cc1ccccc1)C(=O)N[C@@H](CCC(=O)O)C(=O)N[C@@H](CC(C)C)C(=O)N[C@@H](CC(=O)O)C(=O)N[C@@H](CCC(=O)O)C(=O)N[C@@H](C)C(=O)N[C@@H](CCC(=O)O)C(=O)N[C@@H](CCCNC(=N)N)C(=O)N[C@H](C(=O)N[C@@H](CC(N)=O)C(=O)N[C@H](C(=O)O)C(C)C)C(C)C)C(C)C | HeLa and HEK-293T cells | phosphatase bead binding, competitive inhibitor, PIB pulldown iBAQ LC-MS/MS, item: SIKE1 |  | concentration not given | relative to: untreated control | log2 fold change | -0.12
CNC1(c2ccccc2Cl)CCCCC1=O (racemic) | 5-hydroxytryptamine receptor 1A (HTR1A, Homo sapiens, UniProt P08908) | radioligand binding, agonist, radioligand displacement |  | 30 µM |  | inhibition | 2%
Oc1ccc2c3c1O[C@H]1[C@@H](O)CC[C@@]4(O)[C@@H](C2)N(CC2CCC2)CC[C@]314 | Prolactin-releasing peptide receptor (PRLHR, Homo sapiens, UniProt P49683) | receptor activation, TANGO luminescence |  | concentration not given, unconfirmed screen | relative to: vehicle control | log2 fold change | 0.028
COc1ccc2c(-c3nc(-c4c(C)[nH]c5ccc(OC)cc45)cs3)c[nH]c2c1 | differentiated W12E | CUT&RUN-qPCR |  | concentration not given | relative to: untreated | BARD1 binding at HPV ori | decreased
CN1CCN(c2cc(-c3ccncc3)c(-c3ccc4ccccc4c3)nn2)CC1 | Sphingosine 1-phosphate receptor 3 (S1PR3, Homo sapiens, UniProt Q99500) | agonist, FLIPR |  | 12.5 µM |  | activation | -2.1%
CC[C@H](C)[C@H](NC(=O)[C@H](Cc1ccccc1)NC(=O)[C@H](CCC(=O)O)NC(=O)[C@H](CCCNC(=N)N)NC(=O)[C@H](C)NC(=O)[C@H](C)NC(=O)[C@H](CCC(N)=O)NC(=O)[C@H](CCC(=O)O)NC(=O)[C@H](CCC(=O)O)NC(=O)[C@H](CC(C)C)NC(=O)[C@H](Cc1ccc(O)cc1)NC(=O)[C@H](CO)NC(=O)[C@H](CO)NC(=O)[C@@H](NC(=O)[C@H](CC(=O)O)NC(=O)[C@H](CO)NC(=O)[C@@H](NC(=O)[C@H](Cc1ccccc1)NC(=O)[C@@H](NC(=O)CNC(=O)[C@H](CCC(=O)O)NC(=O)[C@H](C)NC(=O)CCc1c[nH]cn1)[C@@H](C)O)[C@@H](C)O)C(C)C)C(=O)N[C@@H](C)C(=O)N[C@@H](Cc1c[nH]c2ccccc12)C(=O)N[C@@H](CC(C)C)C(=O)N[C@H](C(=O)N[C@@H](CCCNC(=N)N)C(=O)NCC(=O)N[C@@H](CCCNC(=N)N)C(=O)N[C@@H](CCCCNC(=O)COCCOCCNC(=O)COCCOCCNC(=O)CC[C@H](NC(=O)CCCCCCCCCCCCCCCCC(=O)O)C(=O)O)C(=O)NCC(=O)NCC(=O)N[C@@H](CO)C(=O)N[C@@H](CCCCNc1c(NCCCCCN(O)C(=O)CCC(=O)NCCCCCN(O)C(=O)CCC(=O)NCCCCCN(O)C(C)=O)c(=O)c1=O)C(=O)O)C(C)C [zirconium-89 labelled] |  |  | rat, lung | iv, 3 nmol/kg, 4 h, ex vivo |  | tissue uptake | 1.91 %ID/g
C[C@H]1CN(c2n[nH]c3nc(N[C@H]4CC[C@H](NS(=O)(=O)CCC(F)(F)F)CC4)ncc23)CCO1 | Filamin-A (Homo sapiens, UniProt P21333) | competitor, Kinobeads competition | human cell extract | 0.032 µM | relative to: vehicle | relative abundance | 1.48
CC(C)C[C@H](NC(=O)C[C@H](O)[C@H](CC(C)C)NC(=O)[C@H](Cc1c[nH]cn1)NC(=O)CNC(=O)[C@@H](NC(=O)[C@H](C)NC(=O)[C@H](Cc1c[nH]c2ccccc12)NC(=O)[C@H](CCC(N)=O)NC(=O)[C@@H](Cc1ccccc1)NC(=O)CCNC(=O)CCSc1nnc(NCCC(=O)NCCC(=O)NCCCC[C@H](NC(=O)N[C@@H](CCC(=O)O)C(=O)O)C(=O)O)c2c1CCC1C(CC2)C1COC(=O)NCCNC(=O)CC[C@H](C(=O)O)N1CCN(CC(=O)O)CCN(CC(=O)O)CC1)C(C)C)C(N)=O (stereo partly drawn) [gallium-68 labelled] |  |  | athymic NMRI nude mouse, pancreas | intravenous, dose not given, 2 h, added: bombesin 480 nmol (GRPR blocking) |  | tissue uptake | 0.31 %ID/g
CC[C@H](C)[C@@H]1NC(=O)[C@@H]2CCCN2C(=O)[C@H](CC(C)C)NC(=O)[C@H](CC(C)C)NC(=O)CNC(=O)[C@@H](NC(=O)[C@@H](NC(=O)[C@H](CC(=O)O)NC(=O)CNC(=O)[C@@H](NC(=O)[C@H](C)NC(=O)CNC(=O)[C@H](CCCCN)NC(=O)[C@H](CC(C)C)NC(=O)[C@H](CC(C)C)NC(=O)[C@H](CCCCN)NC(=O)CNC(=O)[C@@H](NC(=O)[C@@H](N)CC(C)C)C(C)C)C(C)C)C(C)C)CSSC[C@@H](C(=O)O)NC1=O |  | RNA-seq, item: Sgms2 | mouse, traumatic brain injury model, frontal cortex and hippocampus | dose not given | relative to: TBI alone | log2 fold change | -2.29
COc1ccc(N2C(=O)N(c3c(C)cccc3Cl)Cc3cnc(Nc4ccc(C5CCN(C)CC5)cc4OC)nc32)nc1 | Tyrosine-protein kinase ITK/TSK (ITK, Homo sapiens, UniProt Q08881) | kinase activity |  | 0.5 µM |  | inhibition | 0.445%
C[C@@H](O)[C@@H](CO)NC(=O)[C@@H](CCCNC(=N)N)NC(=O)[C@@H]1CCCN1C(=O)[C@@H]1CSSC[C@H](NC(=O)[C@H](Cc2ccccc2)NC(=O)CN2CCN(CC(=O)O)CCN(CC(=O)O)CCN(CC(=O)O)CC2)C(=O)N[C@@H](Cc2ccc(O)cc2)C(=O)N[C@@H](Cc2ccccc2)C(=O)N[C@@H](CCC(N)=O)C(=O)N[C@@H](CC(N)=O)C(=O)N1 [gallium-68 labelled] |  |  | Wistar rat, pancreas | intravenous, 8 MBq, 120 min, group mean |  | tissue uptake | 0.02 %ID/g
